# Measurements gathered from unrelated publications.
# Parts stem from different laboratories: compare values within a part only.

# Block 1
# Target: TAR DNA-binding protein 43, full length, His tag (TARDBP, Homo sapiens, UniProt Q13148, residues 1-414)
# Technique: RNA Bind-n-Seq
# Molecule type: RNA
# Matrix: in vitro
# Tested at: 20 nM
# Setting: 6-mer, flanks averaged, single round
# With: 150 mM KCl
# Relative to: input library
# Direction: higher = stronger binding
Oligonucleotide,6-mer enrichment (R)
CCGGCG,1.48
UAGAAU,0.723
GCAUCU,0.629
GACCAG,1.06
UCUCAG,0.624
AUAUUU,0.657
CCUCCG,0.626
AUAUCG,0.613
CUCUGC,0.608
CCUUGC,0.713
GGAAAA,1.08
UUAUUU,0.703
AGCGAA,0.847
GCCUCC,0.66
UGACUU,0.603
UUCUCC,0.575
GAUCAG,0.901
AAUCAA,0.613

# Block 2
# Target: Hepatocyte nuclear factor 3-alpha (Foxa1, Mus musculus, UniProt P35582, residues 1-468, full length assumed)
# Technique: EMSA with sequencing
# Molecule type: double-stranded DNA, one strand shown
# Matrix: in vitro
# Tested at: 10 and 20 nM
# Setting: whole designed probe, mean of two concentrations, ends assumed
# Relative to: negative control set to 0
# Direction: higher = stronger binding
# Residues (chain): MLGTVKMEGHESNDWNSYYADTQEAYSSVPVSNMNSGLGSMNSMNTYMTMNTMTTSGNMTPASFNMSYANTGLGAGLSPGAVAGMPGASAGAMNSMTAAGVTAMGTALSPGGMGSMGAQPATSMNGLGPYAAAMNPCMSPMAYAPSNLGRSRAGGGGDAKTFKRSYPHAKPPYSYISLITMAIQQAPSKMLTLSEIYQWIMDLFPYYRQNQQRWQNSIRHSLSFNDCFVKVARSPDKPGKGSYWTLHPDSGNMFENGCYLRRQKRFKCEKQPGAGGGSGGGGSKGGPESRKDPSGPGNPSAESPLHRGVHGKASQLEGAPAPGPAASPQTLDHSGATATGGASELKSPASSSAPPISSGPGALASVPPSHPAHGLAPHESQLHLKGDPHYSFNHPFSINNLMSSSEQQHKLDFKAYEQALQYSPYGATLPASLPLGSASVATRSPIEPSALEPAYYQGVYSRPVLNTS
Oligonucleotide,normalised bound fraction [ratio]
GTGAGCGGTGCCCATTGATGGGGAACAATTCACATAAGTTCATTTTTATTGACTTAGTCAGTGCCAGCACTTATACCCATTTTCTACTTATCGGTGACATGAGTTAAGACACCTGACAATGTAAACAGCAATATGATCTCATTTGTGTGGATGATTTAAAATTTTATGTAAAGTTGTGATTTTTCAAGCCATCCTCAGTTTAGGGATATCTCCTTGAGCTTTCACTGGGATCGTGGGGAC,0.447
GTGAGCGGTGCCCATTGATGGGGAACAAGTTATTACATAATGATAAAGGGGCTGATTCAGCAAGAAGATACAAGTATAAATATATATGCAATCAACACTGGAGCACCCAGATATATAAAGTAAATATTATCAGAGCTAAAGAGAGAGAGACCTCAGTACAATAATAGCTAGAGACTTTAACACCCCACCTTCAGCAACGGACATATCTCCCAGACAGAATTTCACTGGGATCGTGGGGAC,0.568
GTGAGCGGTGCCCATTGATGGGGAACTTCTGTGGGCTCATTAGTATCATTTTTAAATGGAGGCTCCGCGGCTTCATTGAGCTGAATTCCTGCCCTGCCTTGCCCTCTTTCCTTTCTTATGTGTACACAGCTCTGACTCACTCATTACACAACCTTTGGAAAGAGAGTATGTGCTTAGAGGCAGAGATATGGGCTTGCCTGTGCACGTCAGTGCAAAAACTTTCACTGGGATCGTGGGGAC,0.186
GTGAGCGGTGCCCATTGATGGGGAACATCTTCCCCCTCTTCCTTGCCCCACCAGCTCACCTTCCCGGGTTATTTGCAGATAGGAAAATAAATAAAGCCGGCATTCGTTAACCCTCTTCTGGCGCAAACTGCTGTTTGCTCTGGATGAATCATGGTCCTTTGGCGACGCCAGGCTCCGGGAGAGCAAAGCGCATGAACCAGCGCTTTCGGCGGGGTGGCCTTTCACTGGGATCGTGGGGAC,0.333
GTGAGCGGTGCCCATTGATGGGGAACCCACTACTCCTGCCAAGCCCTCCTGGCATCTCACCACTTTATTTGTTCCCATTTGTATCTAATGCTTTTGTCAACAGTTCAACAAAAGTCAAAGCAAACAACCCACTGCAAACACTGGGGGTAACAGCAACAAGCATGAATCCTTCACAATTATCCAGCCCAGCTGCTCACAGCTCGTCTGGGCTGCTTTCATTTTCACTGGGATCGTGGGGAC,0.354
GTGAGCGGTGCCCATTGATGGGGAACATCTTCCCCCTCTTCCTTGCCCCACCAGCTCACCTTCCCGGGTTATTTGCAGATAGGAAAATAAATAAAGCCGGCATTCGTTAACCCTCTTCTGGCGCAAACTGCTGTTTGCTCTGGATGAATCATGGTCCTTGCCCGCGGGGCGGCTAATGCAGAGCAAAGCACCGTGTCAGGGCCATGATCCGGGGTGGCCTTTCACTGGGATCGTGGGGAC,0.356
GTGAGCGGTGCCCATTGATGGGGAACACAGCCTGGTAATACCTCAGGTTCCCAAGAACTCCAGGGCCTGTAAACATGCCAGTCAGAGCTCGGCCTGCTTAGAAGGCCGATGGCCTTTGAGTAAATAAACAACACCTTGCATAAATCTCTGCACTTTGAGTGGCAAAGAGGCCATTCCCTGAGGGTGACTTGGAAAACCAGAGGTGCAGTGACTCAGCCTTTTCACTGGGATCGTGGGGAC,0.461
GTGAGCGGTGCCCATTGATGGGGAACATCTTCCCCCTCTTCCTTGCCCCACCAGCTCACCTTCCCGGGTTGTTTACTTTGAGCAAAGTAAACAAAGCCGGCATTCGTTAACCCTCTTCTGGCGCAAACTGCACATTGGTCTGGATGAATCATGGTCCTTTGGCGACGCCAGGCTCCGGGAGAGCAAAGCACCGTGTCAGGGCCATGATCCGGGGTGGCCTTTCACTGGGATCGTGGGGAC,0.501

# Block 3
# Target: Interferon regulatory factor 5, full length, phosphomimetic (IRF5, Homo sapiens, UniProt Q13568-2, residues 1-514, S451D/S453D/S456D/S462D)
# Technique: protein-binding microarray
# Molecule type: double-stranded DNA, one strand shown
# Matrix: in vitro
# Tested at: 940 nM top
# Setting: 60-bp whole probe
# With: salmon DNA 0.4 mg/ml
# Relative to: random background probes
# Direction: higher = stronger binding
# All sequences stand within: GCCTAGCAC … GTCTTGATTCGCTTGACGCTGCTG
Oligonucleotide,fitted relative affinity
TTAGGTTTCCTTATCCTATAGTGCTAG,1.81 z-score
GGGATTTTTAGTTAGAAAAAGTGCTAG,-0.316 z-score
TTTTTTTTCCTAATTGAACCGTGCTAG,0.764 z-score
ATGTCCTCCTCTCTCTTTCCGTGCTAG,1.34 z-score
GACGGACTGGGTATCGGGCCGTGCTAG,0.362 z-score
TTAGGTATCCTTTTCCCTTAGTGCTAG,0.998 z-score
GACGAACTGAGGTTCGAGACGTGCTAG,-0.717 z-score
GCCGGTTTCCTACTGCTGACGTGCTAG,0.709 z-score
GACGGTTTCCTTATCTTGACGTGCTAG,1.39 z-score
GACGATATCAGACTGTAGACGTGCTAG,-0.587 z-score
TCAGCTTCCTAATTCTCACTGTGCTAG,0.791 z-score
TTAGGTTTCGGGTATCGTTTAGTGCTA,11.6 z-score
TCTGATTTCTCAAACAGCTCGTGCTAG,0.494 z-score
GACGATTTCAGCATCGAGACGTGCTAG,-0.287 z-score
GACGATATCGGGACTTGAGACGTGCTA,-0.297 z-score
ATAGGTTTCGGGACTGGGTTAGTGCTA,6.99 z-score

# Block 4
# Target: Histone acetyltransferase KAT6A, winged helix 2, GST fusion (KAT6A, Homo sapiens, UniProt Q92794, residues 85-181)
# Technique: protein binding microarray
# Molecule type: double-stranded DNA, one strand shown
# Matrix: in vitro
# Tested at: not given
# Setting: 8-mer, flanks averaged, mean of 2 arrays, mostly near background
# Relative to: not given
# Direction: higher = stronger binding
# Construct (chain): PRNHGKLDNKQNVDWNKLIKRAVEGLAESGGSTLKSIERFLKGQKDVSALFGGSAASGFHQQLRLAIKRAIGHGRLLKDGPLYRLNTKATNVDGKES
Oligonucleotide,E-score
AAGTCCCT,-0.184
CGTTGGAA,0.0172
CGGGACTC,-0.0366
AGAGCCGA,0.0539
AAAACGGC,0.0576
AAACTGTT,-0.0466
ATTCTAGG,-0.0897
GAAGTTGA,-0.123
CTGGGTTA,-0.0929
CAGCTCAC,0.0615
ATCCAACC,0.0385
CGCGCTTA,-0.00911
CTCCGGTA,-0.157
CCGGGCCA,0.121
CGAGCTGA,0.0877
ACTTGAAA,0.0512
GGCTTCAA,-0.0742
AACGAAAG,0.0852
ATAGAAAT,0.175
GGGAACAC,0.0837

# Block 5
# Target: Ras GTPase-activating protein-binding protein 1, full length (G3BP1, Homo sapiens, UniProt Q13283)
# UniProt Q13283, sequence (whole entry, looked up): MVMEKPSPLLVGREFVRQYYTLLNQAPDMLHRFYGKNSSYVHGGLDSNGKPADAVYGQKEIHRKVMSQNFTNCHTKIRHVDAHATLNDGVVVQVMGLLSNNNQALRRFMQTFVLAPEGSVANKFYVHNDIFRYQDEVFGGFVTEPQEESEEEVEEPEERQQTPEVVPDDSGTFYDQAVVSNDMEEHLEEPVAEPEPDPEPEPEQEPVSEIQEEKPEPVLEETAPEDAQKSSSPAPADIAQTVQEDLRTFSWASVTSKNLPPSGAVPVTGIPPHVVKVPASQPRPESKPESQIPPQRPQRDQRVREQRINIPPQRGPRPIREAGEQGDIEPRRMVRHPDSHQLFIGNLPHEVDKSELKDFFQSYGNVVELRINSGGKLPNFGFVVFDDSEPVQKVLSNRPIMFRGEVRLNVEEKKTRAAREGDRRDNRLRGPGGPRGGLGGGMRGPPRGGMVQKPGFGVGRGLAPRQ
# Technique: RNA Bind-n-Seq
# Molecule type: RNA
# Matrix: in vitro
# Tested at: 200 nM
# Setting: whole 134-nt RNA, ends assumed
# With: 150 mM LiCl
# Relative to: input library
# Direction: higher = stronger binding
# All molecules: 7-deaza-guanosine replaces G
Oligonucleotide,log2 enrichment
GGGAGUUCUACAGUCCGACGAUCCUCAAGUCCUGUGCUACACAUCGUAUGUACCGAAUCGGAAAAAGGUGGAAAGGAAAGUAUUAUGUUACGCCGUUCGGAUCUGCACUUCCAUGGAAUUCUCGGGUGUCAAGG,0.093
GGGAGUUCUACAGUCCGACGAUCUGCUCUCCGUGCCACAUGCGCCCGCAGGUUACGCCAAGGAGGCCCUGAAUCUGGCGCAGAUGCAGGAGCAGACGCUGCAGUUGGAGCAACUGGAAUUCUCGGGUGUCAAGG,-2.86
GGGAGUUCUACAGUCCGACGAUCAGUCCUGUGCUACACAUCGUAUGUACCGAAUCGGGAAAAAGGGUUUGGGUUUUUGGGAAAGUAUUAUGUUACGCCGUUCGGAUCUGCACUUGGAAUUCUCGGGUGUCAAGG,-1.65
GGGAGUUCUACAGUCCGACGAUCGCAGGAAGUAAAAACAAAUGGAAAUGCUUCGGAUAGAGGCAGGGGUGGGGGUUGCUAAGGAAAGGGUGGGAUGGGAGUGGGUAAAGAGUUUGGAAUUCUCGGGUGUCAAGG,0.271
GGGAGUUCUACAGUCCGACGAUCUCCCCCCUAUUGGAAGUAAAGGGGAACAUAGAACUGAAGAGACCUCUGAUUAAGGCCCCUUCCCAGCUGCCUCUCUCAGGAAGCAGACUCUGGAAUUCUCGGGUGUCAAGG,0.785
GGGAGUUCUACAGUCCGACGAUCGUCCUGUGCUACACAUCGUAUGUACCGAAUCGGGGAAAAAGGGGUUUUUGGGGUGGGGAAAGUAUUAUGUUACGCCGUUCGGAUCUGCACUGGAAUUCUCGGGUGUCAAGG,-0.796
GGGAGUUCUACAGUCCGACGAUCUCCUGUGCUACACAUCGUAUGUACCGAAUCGGGGAAAAAAAGGGGUGGGGUUUUUGGGGAAAGUAUUAUGUUACGCCGUUCGGAUCUGCAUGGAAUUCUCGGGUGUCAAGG,-1.7
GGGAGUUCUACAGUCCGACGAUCGUCCUGUGCUACACAUCGUAUGUACCGAAUCGGGCCCCCGGGGCCCCCGGGGCCCCCGGAAAGUAUUAUGUUACGCCGUUCGGAUCUGCAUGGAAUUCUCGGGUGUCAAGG,-0.0682

# Block 6
# Target: Cyclic AMP-responsive element-binding protein 1 (CREB1, Homo sapiens, UniProt P16220, residues 1-327, full length assumed)
# UniProt P16220, sequence (whole entry, looked up): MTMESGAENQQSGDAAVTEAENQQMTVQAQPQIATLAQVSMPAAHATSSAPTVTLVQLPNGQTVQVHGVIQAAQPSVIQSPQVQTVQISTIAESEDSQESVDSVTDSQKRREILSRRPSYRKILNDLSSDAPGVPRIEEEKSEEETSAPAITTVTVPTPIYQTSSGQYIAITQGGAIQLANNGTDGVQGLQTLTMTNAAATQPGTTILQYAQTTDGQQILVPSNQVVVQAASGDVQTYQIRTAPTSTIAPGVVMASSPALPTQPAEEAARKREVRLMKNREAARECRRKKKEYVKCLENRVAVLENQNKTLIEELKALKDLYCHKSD
# Technique: protein-binding microarray
# Molecule type: double-stranded DNA, one strand shown
# Matrix: in vitro
# Tested at: not given
# Setting: k-mer, scored over probes, only values ≥0.25
# Direction: higher = stronger binding
Oligonucleotide,E-score
ACGTATG,0.323
ACGTACG,0.35
TAATATA,0.309
GACATCA,0.288
TAAGTAA,0.26
AACACGT,0.342
CGCGTAA,0.317
GTATGAC,0.364
CGTCACG,0.48
AATATTA,0.289
ATAACAA,0.276
ACATATA,0.259
ATTACGA,0.277
GCATGAC,0.27
ATGTGAA,0.276
AACGTGT,0.253

# Block 7
# Target: UBE2L3 UBC core domain (UniProt P68036)
# UniProt P68036, sequence (whole entry, looked up): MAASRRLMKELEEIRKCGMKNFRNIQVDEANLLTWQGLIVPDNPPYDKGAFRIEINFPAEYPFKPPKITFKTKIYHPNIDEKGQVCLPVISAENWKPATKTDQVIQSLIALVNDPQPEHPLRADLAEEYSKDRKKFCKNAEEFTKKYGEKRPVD
# Technique: yeast two-hybrid
# Matrix: yeast
# Setting: mostly zero background
# Relative to: not given
# Direction: higher = stronger interaction
# B1: RNF43 RING domain (UniProt Q68DV7); chain SGSSCSSAPVCAICLEEFSEGQELRVISCLHEFHRNCVDPWLHQHRTCPLCMFNITEGDSFS
# B2: RNF4 RING domain (UniProt P78317); chain TGLRPSGTVSCPICMDGYSEIVQNGRLIVSTECGHVFCSQCLRDSLKNANTCPTCRKKINHKRYHP
# B3: TRIM55 RING domain (UniProt Q9BYV6); chain TMDNLEKQLICPICLEMFTKPVVILPCQHNLCRKCASDIFQASNPYLPTRGGTTMASGGRFRCPSCRHEVVLDRHG
# B4: TRIM15 RING domain (UniProt Q9C019); chain SLKVVHELPACTLCAGPLEDAVTIPCGHTFCRLCLPALSQMGAQSSGKILLCPLCQEEEQAETPMA
# B5: ANKIB1 RING domain (UniProt Q9P2G1); chain LSPGDLDTSLCDICMCSISVFEDPVDMPCGHDFCRGCWESFLNLKIQEGEAHNIFCPAYDCFQLVPVDIIE
Molecule,lacZ reporter activity
B1 (RNF43 RING domain),0
B2 (RNF4 RING domain),2060
B3 (TRIM55 RING domain),0
KRQCSDVDDICSICQAEFQKPILLICQHIFCEECMTLWFNREKTCPLCRTVISDHINKW (RNFT1 RING domain (UniProt Q5M7Z0)),0
B4 (TRIM15 RING domain),0
B5 (ANKIB1 RING domain),0

# Excerpt of the above (block 6):
Oligonucleotide,E-score
ACGTATG,0.323
ACGTACG,0.35
TAATATA,0.309
GACATCA,0.288
TAAGTAA,0.26
AACACGT,0.342
